Published values of several laboratories.
Every numbered part comes from another study and shows a few of its results, in no order. Substitutions count along the parent as printed.

Sample 1
Target: Ras GTPase-activating protein-binding protein 1, full length (G3BP1, Homo sapiens, UniProt Q13283)
Sequence of UniProt Q13283 (whole entry, looked up): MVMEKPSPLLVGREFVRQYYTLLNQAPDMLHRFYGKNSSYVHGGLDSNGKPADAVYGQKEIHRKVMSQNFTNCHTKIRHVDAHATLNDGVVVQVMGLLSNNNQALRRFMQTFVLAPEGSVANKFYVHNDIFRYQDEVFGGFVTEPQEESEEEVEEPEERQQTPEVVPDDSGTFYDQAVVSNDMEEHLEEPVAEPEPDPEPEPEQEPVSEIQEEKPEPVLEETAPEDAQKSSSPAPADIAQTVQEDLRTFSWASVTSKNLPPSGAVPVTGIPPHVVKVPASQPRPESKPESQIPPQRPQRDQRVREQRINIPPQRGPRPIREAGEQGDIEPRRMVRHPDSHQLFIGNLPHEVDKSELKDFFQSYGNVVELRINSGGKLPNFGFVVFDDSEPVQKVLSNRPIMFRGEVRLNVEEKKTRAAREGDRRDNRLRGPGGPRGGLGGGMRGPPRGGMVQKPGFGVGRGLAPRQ
Method: RNA Bind-n-Seq
Molecule type: RNA
Matrix: in vitro
Concentration: 200 nM
Notes: whole 134-nt RNA, ends assumed
With: 150 mM KCl
Baseline: input library
Reading: higher = stronger binding
`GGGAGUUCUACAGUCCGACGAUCUGUGUGUUAUAUAUUUAUUUUUAAUUGCAGAUGACAGGAUUGGACAUUGAGAAGGACCAGAUUAUUGAGAUGGCCUGUCUGAUAACUGACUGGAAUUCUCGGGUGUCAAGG` has a log2 enrichment of -1.95.
`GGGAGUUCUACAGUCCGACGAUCCUGUGCUACACAUCGUAUGUACCGAAUCGGUUUUUUUGGGGUUUUUUUGGGUUUUUUUGGGGAAAGUAUUAUGUUACGCCGUUCGGAUCUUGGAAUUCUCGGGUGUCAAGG` has a log2 enrichment of -0.984.
`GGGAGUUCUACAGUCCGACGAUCGUCCUGUGCUACACAUCGUAUGUACCGAAUCGUGUGUGUGUGUGUGUGUGUGUGUGUGUAAAGUAUUAUGUUACGCCGUUCGGAUCUGCAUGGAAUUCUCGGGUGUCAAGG` has a log2 enrichment of 0.819.
`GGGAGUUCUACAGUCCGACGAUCAGUCCUGUGCUACACAUCGUAUGUACCGAAUCGGGUUUUGGGGUUUUGGGGUUUUGGAAAGUAUUAUGUUACGCCGUUCGGAUCUGCACUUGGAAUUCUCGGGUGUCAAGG` has a log2 enrichment of -0.379.
The log2 enrichment of `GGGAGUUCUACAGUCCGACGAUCUGGCCCUGGUGGCAUGCGGGGAGUAAGAGGUGGCCUCAUGGAUCGUGGUGGUCCCGGUGGAAUGUUCAGAGGUGGCCGUGGUGGAGACAGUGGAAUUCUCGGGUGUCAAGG` is reported as 0.192.
`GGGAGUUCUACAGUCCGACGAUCACCAUGCAGGUGGGCAUCUUUGGGAAGUGGGGCAAGGGGGGGAUAGGGAGGGGGGUAACACUUUGGGAACGGGUGGUCCCAGGUCGUUUCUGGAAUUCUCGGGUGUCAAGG` has a log2 enrichment of 1.02.
The log2 enrichment of `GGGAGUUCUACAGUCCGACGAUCCUCAAGUCCUGUGCUACACAUCGUAUGUACCGAAUCGGGGCGGGCGGGCGGGGAAAGUAUUAUGUUACGCCGUUCGGAUCUGCACUUCCAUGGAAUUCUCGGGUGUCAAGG` is reported as 0.846.
`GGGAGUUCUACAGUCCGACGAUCCACAGACAACACGCACAAACACAGACACAGAGGGAAGGGGUUGGGAUGGGGACAGGGUGCACAGCAGGGCGGGGUAGGACCCCAGCCCCUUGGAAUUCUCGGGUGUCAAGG` has a log2 enrichment of 1.32.
For `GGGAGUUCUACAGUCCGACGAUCUCAAGUCCUGUGCUACACAUCGUAUGUACCGAAUCGGGGUUGGUUGGGUUGGGGAAAGUAUUAUGUUACGCCGUUCGGAUCUGCACUUCCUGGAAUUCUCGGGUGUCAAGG`, the log2 enrichment was 0.593.
`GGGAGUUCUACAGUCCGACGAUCUUCGAAGAGGUUGUGUACCAGGCCAUGGGUGAGUGCCCGGGCCACCGAGGCCACGUGCCUCCACGAGGGGCUGCCUAUGCCCCACCCUGGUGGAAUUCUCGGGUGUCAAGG` has a log2 enrichment of -0.653.
For `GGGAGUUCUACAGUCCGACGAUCAGUCCUGUGCUACACAUCGUAUGUACCGAAUCGGGGAAAAAGGGGAAAGGGGAGGGGAAAGUAUUAUGUUACGCCGUUCGGAUCUGCACUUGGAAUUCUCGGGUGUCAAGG`, the log2 enrichment was 0.0361.

Sample 2
Target: ABI1, truncated, D143A, DHFR fusion (Arabidopsis thaliana)
Method: DHFR PCA, deep sequencing
Matrix: yeast
Notes: methotrexate growth selection, single substitutions
With: (+)-ABA 2500 µM
Baseline: wild-type fitted maximum
Reading: higher = stronger binding
Starting sequence: PYL1, truncated, DHFR fusion (Arabidopsis thaliana); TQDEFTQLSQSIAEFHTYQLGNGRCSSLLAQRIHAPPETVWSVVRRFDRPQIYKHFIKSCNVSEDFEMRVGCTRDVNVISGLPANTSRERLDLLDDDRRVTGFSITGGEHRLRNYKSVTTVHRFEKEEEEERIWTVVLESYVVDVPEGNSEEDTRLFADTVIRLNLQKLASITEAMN
`E89F` — result for “relative binding score”: -14%.
For `F103A`, “relative binding score” read 9.45%.
For `R155W`, “relative binding score” read 68.3%.
`E130Y`: “relative binding score” 106%.
`E125V` — result for “relative binding score”: 105%.
Under “relative binding score”, `R99T` is recorded as 99.4%.
`G81W` — result for “relative binding score”: 7.35%.
`I33M`: “relative binding score” 91.3%.
Under “relative binding score”, `V137Y` is recorded as 19.4%.

Sample 3
Target: BATF3, bZIP domain (human)
Method: DHFR protein complementation
Matrix: yeast
Notes: single substitutions, most at no-binding floor
Baseline: wild-type JUN-FOS pair
Reading: higher = stronger binding
Starting sequence: JUN, bZIP domain (human); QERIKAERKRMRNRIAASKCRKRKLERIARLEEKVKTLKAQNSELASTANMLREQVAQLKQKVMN; partner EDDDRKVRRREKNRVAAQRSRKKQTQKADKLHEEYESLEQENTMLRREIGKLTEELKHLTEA
The binding fitness of `E33D` is reported as 0.214 natural log.
For `E33S`, the binding fitness was 0.14 natural log.
The binding fitness of `E33L` is reported as 0.172 natural log.
`E32F` gave a binding fitness of 0.0528 natural log.
`V35T` has a binding fitness of 0.165 natural log.
For `R53F`, the binding fitness was -0.0678 natural log.
The binding fitness of `A46G` is reported as 0.0939 natural log.

Other studies, line by line
For `PhoQ, residues 284 288 289 292 302 303 SIHLQL`, the fold induction was 5.44 (PhoP, residues 12 14 15 18 19 LYFRQ (Escherichia coli, UniProt P23836); Sort-seq, measured: YFP reporter; E. coli; PhoQ-PhoP variant library, with: 10 µM Mg2+; baseline: high Mg2+ state, higher = stronger signaling).

For quick reference, copied from above (sample 1):
For `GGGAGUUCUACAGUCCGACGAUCUCAAGUCCUGUGCUACACAUCGUAUGUACCGAAUCGGGGUUGGUUGGGUUGGGGAAAGUAUUAUGUUACGCCGUUCGGAUCUGCACUUCCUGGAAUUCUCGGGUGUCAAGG`, the log2 enrichment was 0.593.
The log2 enrichment of `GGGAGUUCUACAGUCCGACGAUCUGGCCCUGGUGGCAUGCGGGGAGUAAGAGGUGGCCUCAUGGAUCGUGGUGGUCCCGGUGGAAUGUUCAGAGGUGGCCGUGGUGGAGACAGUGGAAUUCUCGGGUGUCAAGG` is reported as 0.192.
For `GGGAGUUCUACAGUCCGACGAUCAGUCCUGUGCUACACAUCGUAUGUACCGAAUCGGGGAAAAAGGGGAAAGGGGAGGGGAAAGUAUUAUGUUACGCCGUUCGGAUCUGCACUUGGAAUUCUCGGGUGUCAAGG`, the log2 enrichment was 0.0361.
`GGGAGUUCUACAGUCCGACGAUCCACAGACAACACGCACAAACACAGACACAGAGGGAAGGGGUUGGGAUGGGGACAGGGUGCACAGCAGGGCGGGGUAGGACCCCAGCCCCUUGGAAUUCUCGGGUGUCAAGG` has a log2 enrichment of 1.32.
